# Results gathered from unrelated publications.
# Parts stem from different laboratories: compare values within a part only.
# UniProt P10721, sequence (whole entry, unmodified, looked up): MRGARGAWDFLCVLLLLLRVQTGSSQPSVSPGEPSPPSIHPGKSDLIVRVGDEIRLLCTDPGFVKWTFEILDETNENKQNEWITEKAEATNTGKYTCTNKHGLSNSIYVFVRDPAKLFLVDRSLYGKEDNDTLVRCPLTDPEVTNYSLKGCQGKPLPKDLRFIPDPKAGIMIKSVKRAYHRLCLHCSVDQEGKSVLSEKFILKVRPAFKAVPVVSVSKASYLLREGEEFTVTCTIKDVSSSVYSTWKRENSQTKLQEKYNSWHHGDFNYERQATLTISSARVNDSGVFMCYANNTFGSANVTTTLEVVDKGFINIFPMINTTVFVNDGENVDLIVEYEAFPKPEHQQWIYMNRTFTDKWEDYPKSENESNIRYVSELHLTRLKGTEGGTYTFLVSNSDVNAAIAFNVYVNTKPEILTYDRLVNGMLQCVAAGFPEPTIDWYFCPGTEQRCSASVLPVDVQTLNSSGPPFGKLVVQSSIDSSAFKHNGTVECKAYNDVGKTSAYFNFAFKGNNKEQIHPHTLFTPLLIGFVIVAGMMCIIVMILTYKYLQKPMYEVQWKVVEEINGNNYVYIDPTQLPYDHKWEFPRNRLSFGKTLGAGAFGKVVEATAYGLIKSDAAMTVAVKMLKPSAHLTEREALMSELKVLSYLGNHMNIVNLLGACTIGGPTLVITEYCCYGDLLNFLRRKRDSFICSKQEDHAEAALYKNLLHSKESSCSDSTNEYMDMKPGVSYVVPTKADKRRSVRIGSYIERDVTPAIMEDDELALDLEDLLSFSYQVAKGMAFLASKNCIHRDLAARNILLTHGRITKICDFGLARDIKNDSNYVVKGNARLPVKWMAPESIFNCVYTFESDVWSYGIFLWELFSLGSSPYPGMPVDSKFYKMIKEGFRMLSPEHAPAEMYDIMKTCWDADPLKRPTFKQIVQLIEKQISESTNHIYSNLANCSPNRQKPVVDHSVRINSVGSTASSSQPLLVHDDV
# UniProt Q05655, sequence (whole entry, looked up): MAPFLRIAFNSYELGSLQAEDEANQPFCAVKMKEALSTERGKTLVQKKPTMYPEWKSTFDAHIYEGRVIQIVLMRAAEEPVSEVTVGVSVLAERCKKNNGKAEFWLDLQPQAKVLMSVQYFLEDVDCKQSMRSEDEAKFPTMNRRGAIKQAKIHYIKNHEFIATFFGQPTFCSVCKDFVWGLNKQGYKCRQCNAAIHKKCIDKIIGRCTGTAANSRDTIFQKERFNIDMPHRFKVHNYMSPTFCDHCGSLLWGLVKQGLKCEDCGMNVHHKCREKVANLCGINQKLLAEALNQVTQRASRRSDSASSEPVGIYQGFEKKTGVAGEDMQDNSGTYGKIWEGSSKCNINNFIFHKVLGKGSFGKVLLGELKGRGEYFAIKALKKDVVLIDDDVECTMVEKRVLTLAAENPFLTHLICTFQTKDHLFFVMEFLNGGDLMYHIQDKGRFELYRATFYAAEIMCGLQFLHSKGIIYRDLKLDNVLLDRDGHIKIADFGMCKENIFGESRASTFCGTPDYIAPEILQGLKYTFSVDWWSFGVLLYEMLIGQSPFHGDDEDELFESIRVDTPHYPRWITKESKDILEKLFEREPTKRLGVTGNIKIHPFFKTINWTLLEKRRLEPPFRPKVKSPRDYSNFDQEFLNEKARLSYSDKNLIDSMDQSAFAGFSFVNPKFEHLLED
# UniProt P53778, sequence (whole entry, looked up): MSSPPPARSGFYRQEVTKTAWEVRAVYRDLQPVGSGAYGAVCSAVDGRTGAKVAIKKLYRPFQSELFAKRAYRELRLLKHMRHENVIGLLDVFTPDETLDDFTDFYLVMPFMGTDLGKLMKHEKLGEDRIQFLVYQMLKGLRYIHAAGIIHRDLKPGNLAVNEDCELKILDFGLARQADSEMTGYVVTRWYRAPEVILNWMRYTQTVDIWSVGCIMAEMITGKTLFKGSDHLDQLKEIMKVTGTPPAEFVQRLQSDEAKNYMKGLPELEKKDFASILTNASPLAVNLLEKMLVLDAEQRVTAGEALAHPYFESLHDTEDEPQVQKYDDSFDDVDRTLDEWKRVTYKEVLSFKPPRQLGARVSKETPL
# UniProt Q15208, sequence (whole entry, looked up): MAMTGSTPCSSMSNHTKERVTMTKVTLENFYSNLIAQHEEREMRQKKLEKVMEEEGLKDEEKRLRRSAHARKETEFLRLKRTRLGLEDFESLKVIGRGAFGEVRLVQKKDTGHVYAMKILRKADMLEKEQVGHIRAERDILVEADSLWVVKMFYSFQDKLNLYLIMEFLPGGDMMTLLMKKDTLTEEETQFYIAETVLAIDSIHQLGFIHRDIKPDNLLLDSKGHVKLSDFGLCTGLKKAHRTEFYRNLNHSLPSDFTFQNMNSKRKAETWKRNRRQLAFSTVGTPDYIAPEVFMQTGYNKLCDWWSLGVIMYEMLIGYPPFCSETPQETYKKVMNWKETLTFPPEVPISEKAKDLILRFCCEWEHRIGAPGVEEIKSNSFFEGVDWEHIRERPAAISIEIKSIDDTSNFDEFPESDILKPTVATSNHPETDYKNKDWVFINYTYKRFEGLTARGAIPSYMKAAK
# UniProt P0C264, sequence (whole entry, looked up): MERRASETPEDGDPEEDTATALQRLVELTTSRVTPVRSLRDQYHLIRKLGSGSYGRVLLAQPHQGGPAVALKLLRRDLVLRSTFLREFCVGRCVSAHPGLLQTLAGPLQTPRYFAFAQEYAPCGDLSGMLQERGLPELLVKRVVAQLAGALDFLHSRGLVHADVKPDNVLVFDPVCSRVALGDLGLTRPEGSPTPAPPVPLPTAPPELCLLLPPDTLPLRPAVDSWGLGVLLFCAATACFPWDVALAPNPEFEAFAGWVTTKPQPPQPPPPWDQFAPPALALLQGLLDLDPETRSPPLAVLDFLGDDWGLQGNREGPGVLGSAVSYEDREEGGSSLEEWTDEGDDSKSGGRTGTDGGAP
# UniProt P78362, sequence (whole entry, looked up): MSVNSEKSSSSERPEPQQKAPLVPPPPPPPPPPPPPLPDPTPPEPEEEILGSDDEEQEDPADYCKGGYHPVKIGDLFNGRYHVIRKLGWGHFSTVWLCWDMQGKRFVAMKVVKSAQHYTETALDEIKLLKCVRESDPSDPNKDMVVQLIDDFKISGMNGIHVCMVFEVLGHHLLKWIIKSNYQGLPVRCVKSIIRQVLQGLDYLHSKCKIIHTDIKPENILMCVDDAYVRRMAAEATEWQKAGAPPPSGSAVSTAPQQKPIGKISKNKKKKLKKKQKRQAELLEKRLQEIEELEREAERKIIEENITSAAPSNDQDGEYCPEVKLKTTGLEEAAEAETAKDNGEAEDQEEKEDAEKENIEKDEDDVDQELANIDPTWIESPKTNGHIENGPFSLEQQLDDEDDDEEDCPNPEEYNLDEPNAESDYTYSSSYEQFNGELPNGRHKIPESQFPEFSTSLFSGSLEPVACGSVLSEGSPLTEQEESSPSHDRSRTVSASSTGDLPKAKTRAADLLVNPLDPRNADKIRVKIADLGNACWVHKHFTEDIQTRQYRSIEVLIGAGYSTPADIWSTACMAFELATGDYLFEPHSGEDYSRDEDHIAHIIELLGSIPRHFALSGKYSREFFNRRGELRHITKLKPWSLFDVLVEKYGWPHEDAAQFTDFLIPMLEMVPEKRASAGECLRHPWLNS
# UniProt Q9NWZ3, sequence (whole entry, looked up): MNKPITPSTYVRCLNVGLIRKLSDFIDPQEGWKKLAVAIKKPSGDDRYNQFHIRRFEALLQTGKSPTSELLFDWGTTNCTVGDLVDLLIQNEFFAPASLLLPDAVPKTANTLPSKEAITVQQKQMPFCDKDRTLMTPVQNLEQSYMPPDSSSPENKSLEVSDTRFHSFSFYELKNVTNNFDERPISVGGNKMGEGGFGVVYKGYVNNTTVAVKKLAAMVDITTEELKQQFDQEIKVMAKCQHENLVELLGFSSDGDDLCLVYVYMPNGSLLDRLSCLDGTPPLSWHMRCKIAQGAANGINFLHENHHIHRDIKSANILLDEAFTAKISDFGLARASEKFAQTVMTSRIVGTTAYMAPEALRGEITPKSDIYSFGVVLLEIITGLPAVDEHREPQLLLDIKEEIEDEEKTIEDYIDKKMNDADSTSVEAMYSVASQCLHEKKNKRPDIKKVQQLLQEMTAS
# UniProt Q12851, sequence (whole entry, looked up): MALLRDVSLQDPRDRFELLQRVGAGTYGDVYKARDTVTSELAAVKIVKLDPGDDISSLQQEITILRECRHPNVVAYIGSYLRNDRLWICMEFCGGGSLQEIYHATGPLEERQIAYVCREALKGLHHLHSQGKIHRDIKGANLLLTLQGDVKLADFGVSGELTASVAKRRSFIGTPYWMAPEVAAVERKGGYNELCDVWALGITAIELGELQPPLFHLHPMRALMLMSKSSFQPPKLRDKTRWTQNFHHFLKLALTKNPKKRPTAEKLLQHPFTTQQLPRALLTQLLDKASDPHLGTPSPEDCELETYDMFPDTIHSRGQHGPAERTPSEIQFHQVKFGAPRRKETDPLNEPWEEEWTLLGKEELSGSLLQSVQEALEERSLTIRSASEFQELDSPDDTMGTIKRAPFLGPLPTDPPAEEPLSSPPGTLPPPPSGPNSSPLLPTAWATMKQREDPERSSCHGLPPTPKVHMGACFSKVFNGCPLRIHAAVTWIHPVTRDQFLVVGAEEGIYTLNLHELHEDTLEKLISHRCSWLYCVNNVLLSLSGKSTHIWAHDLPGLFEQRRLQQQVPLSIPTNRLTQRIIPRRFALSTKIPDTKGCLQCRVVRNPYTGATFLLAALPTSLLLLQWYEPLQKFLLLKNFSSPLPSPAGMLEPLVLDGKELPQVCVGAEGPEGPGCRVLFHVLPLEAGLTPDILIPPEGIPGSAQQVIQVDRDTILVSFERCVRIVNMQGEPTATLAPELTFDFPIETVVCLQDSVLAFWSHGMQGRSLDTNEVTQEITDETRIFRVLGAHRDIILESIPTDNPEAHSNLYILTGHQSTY

# Set 1 — host: human; matrix: microsomes or S9; concentration: 2 µM; time: 0.5 h
SMILES,remaining compound [%]
COc1ccc(Br)cc1CNC(=O)C(C)n1nc(C)n2c(cc3occc32)c1=O (stereo not drawn),1.59
C[C@H]1CN2C[C@H](O)CC2CN1Cc1cc2c(cc1Cl)OCO2 (stereo partly drawn),79.2
O=S(=O)(c1ccccc1)N(CC(O)COc1cc(Cl)ccc1Cl)c1nccs1 (stereo not drawn),5
CCCOc1cccc([C@@H]2c3ccc(OC)cc3OC(=O)[C@H]2C(C)(C)O)c1,57.9
Cc1ccn(CCNc2ncnc3c2CCN(c2cnccn2)CC3)n1,2.05
COC(=O)c1cccc(OCCn2c(=O)[nH]c3cc(F)c(F)cc3c2=O)c1,0.00351
CCC1(CC)NC(=O)N(Cc2cc3ccc(C)c(C)c3nc2Cl)C1=O,9.86
CC(c1ccncn1)N(C)C(=O)c1ccc(OC2CCN(CCc3ccccc3)CC2)cc1 (stereo not drawn),9.55

# Set 2 — observed: cell-free assay; technique: competition with immobilised ligand; concentration: 1 µM
# Compound: O=C(NC[C@@H]1[C@H]2CN(C(=O)OCc3cc(C(F)(F)F)cc(C(F)(F)F)c3)C[C@@H]12)c1ccc2[nH]nnc2c1
target,remaining binding [%]
"Tyrosine-protein kinase ABL1, non-phosphorylated (ABL1, Homo sapiens, UniProt P00519, H396P)",84
"KIT (Homo sapiens, UniProt P10721, L576P)",92
"CIT (Homo sapiens, UniProt O14578)",100
"Tyrosine-protein kinase ABL1, phosphorylated (ABL1, Homo sapiens, UniProt P00519, M351T)",98
"RIPK1 (Homo sapiens, UniProt Q13546)",89
"PRKCD (Homo sapiens, UniProt Q05655)",93
"EGFR (Homo sapiens, UniProt P00533, del752-759)",100
"KIT (Homo sapiens, UniProt P10721, V559D/V654A)",99
"HIPK1 (Homo sapiens, UniProt Q86Z02)",85
"PAK2 (Homo sapiens, UniProt Q13177)",100
"KIT (Homo sapiens, UniProt P10721, T670I/V559D)",100
"BRSK1 (Homo sapiens, UniProt Q8TDC3)",89
"FGFR2 (Homo sapiens, UniProt P21802)",100
"PIK3C2B (Homo sapiens, UniProt O00750)",65
"FGFR4 (Homo sapiens, UniProt P22455)",82
"SRPK2 (Homo sapiens, UniProt P78362)",100
"SBK3 (Homo sapiens, UniProt P0C264)",100

# Set 3 — organism: Sarcocystis neurona; observed: parasite growth; concentration: 10 µM; time: 96 h; notes: first screen; baseline: untreated
SMILES,log2 fold change
O=C(CCNNC(=O)c1ccncc1)NCc1ccccc1,0.07
OC(Cn1cncn1)(Cn1cncn1)c1ccc(F)cc1F,0.0442
COc1cc(NC(C)CCCN)c2ncccc2c1 (stereo not drawn),-5.9
CC1(C)O[C@@H]2C[C@H]3[C@@H]4C[C@H](F)C5=CC(=O)C=C[C@]5(C)[C@H]4[C@@H](O)C[C@]3(C)[C@]2(C(=O)CO)O1,0.39
CN(C)[C@@H]1C(O)=C(C(N)=O)C(=O)[C@@]2(O)C(O)=C3C(=O)c4c(O)cccc4[C@@](C)(O)[C@H]3C[C@@H]12,-0.5
CCCc1nc2c(C)cc(-c3nc4ccccc4n3C)cc2n1Cc1ccc(-c2ccccc2C(=O)O)cc1,-0.0662
CCCC1O[C@@H]2C[C@H]3[C@@H]4CCC5=CC(=O)C=C[C@]5(C)[C@H]4[C@@H](O)C[C@]3(C)[C@]2(C(=O)CO)O1 (stereo partly drawn),0.33
CN(C)[C@@H]1C(O)=C(C(=O)NCN2CCCC2)C(=O)[C@@]2(O)C(O)=C3C(=O)c4c(O)cccc4[C@@](C)(O)[C@H]3C[C@@H]12,0.09
COc1ccnc(C[S+]([O-])c2nc3ccc(OC(F)F)cc3[nH]2)c1OC (stereo not drawn),0.12
C[C@@H]1C[C@H]2[C@@H]3CCC4=CC(=O)C=C[C@]4(C)[C@@]3(F)[C@@H](O)C[C@]2(C)[C@@]1(O)C(=O)CO,-0.18
CCCNC(=O)NS(=O)(=O)c1ccc(Cl)cc1,0.1

# Set 4 — observed: enzyme activity; mode: inhibitor; concentration: 0.5 µM; baseline: control
# Structure (SMILES): O=C1Nc2ccc(Br)cc2/C1=C/c1cc2c([nH]1)CCCC2
target,remaining activity [%]
"EPHA5 (Homo sapiens, UniProt P54756)",91.3
"CSNK1A1 (Homo sapiens, UniProt P48729)",100
"LRRK2 (Homo sapiens, UniProt Q5S007)",7.03
"PRKCI (Homo sapiens, UniProt P41743)",92
"CHEK1 (Homo sapiens, UniProt O14757)",81.8
"PRKCD (Homo sapiens, UniProt Q05655)",95.6
"MAPK13 (Homo sapiens, UniProt O15264)",100
"PRKG1 (Homo sapiens, UniProt Q13976)",77
"MAP3K10 (Homo sapiens, UniProt Q02779)",99.8
"STK38 (Homo sapiens, UniProt Q15208)",80.1
"PLK2 (Homo sapiens, UniProt Q9NYY3)",102
"IRAK4 (Homo sapiens, UniProt Q9NWZ3)",67.2
"BTK (Homo sapiens, UniProt Q06187)",90.5
"MAP4K2 (Homo sapiens, UniProt Q12851)",58.1
"WNK2 (Homo sapiens, UniProt Q9Y3S1)",101
"MKNK2 (Homo sapiens, UniProt Q9HBH9)",87.1
"MAPK12 (Homo sapiens, UniProt P53778)",93
"LYN (Homo sapiens, UniProt P07948)",70.8
"CSNK2A1 (Homo sapiens, UniProt P68400)",96.1
"Cyclin-dependent kinase 9, with cyclin T1 (CDK9, Homo sapiens, UniProt P50750)",90
"NEK4 (Homo sapiens, UniProt P51957)",80.5
"KIT (Homo sapiens, UniProt P10721)",30.5
"MAP2K6 (Homo sapiens, UniProt P52564)",110
"AKT3 (Homo sapiens, UniProt Q9Y243)",96.6

# Repeated from above (set 4):
target,remaining activity [%]
"AKT3 (Homo sapiens, UniProt Q9Y243)",96.6
"MAPK12 (Homo sapiens, UniProt P53778)",93
"IRAK4 (Homo sapiens, UniProt Q9NWZ3)",67.2
"MKNK2 (Homo sapiens, UniProt Q9HBH9)",87.1
"CSNK2A1 (Homo sapiens, UniProt P68400)",96.1
"STK38 (Homo sapiens, UniProt Q15208)",80.1
"MAP2K6 (Homo sapiens, UniProt P52564)",110
"PRKCI (Homo sapiens, UniProt P41743)",92
"Cyclin-dependent kinase 9, with cyclin T1 (CDK9, Homo sapiens, UniProt P50750)",90
